Experimental data of several laboratories.
Numbered parts are unrelated; each lists some results of a single study.

Block 1
Target: Histone acetyltransferase KAT6A, winged helix 2, GST fusion (KAT6A, Homo sapiens, UniProt Q92794, residues 85-181)
Technique: protein binding microarray
Molecule type: double-stranded DNA, one strand shown
Medium: in vitro
Concentration: not given
Setting: 8-mer, flanks averaged, mean of 2 arrays, mostly near background
Reference: not given
Reading: higher = stronger binding
Construct (chain): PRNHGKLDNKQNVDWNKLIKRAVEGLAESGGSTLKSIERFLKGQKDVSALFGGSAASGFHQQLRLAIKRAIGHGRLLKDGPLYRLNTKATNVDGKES
Oligonucleotide | E-score
CTCAGCAA | 0.154
GGCGGGAC | 0.182
GCCCGGAA | 0.139

Block 2
Target: Cyclic AMP-dependent transcription factor ATF-1 (ATF1, Homo sapiens, UniProt P18846, residues 1-271, full length assumed)
Technique: protein-binding microarray
Molecule type: double-stranded DNA, one strand shown
Medium: in vitro
Concentration: not given
Setting: k-mer, scored over probes, only values ≥0.25
Reading: higher = stronger binding
Residues (chain): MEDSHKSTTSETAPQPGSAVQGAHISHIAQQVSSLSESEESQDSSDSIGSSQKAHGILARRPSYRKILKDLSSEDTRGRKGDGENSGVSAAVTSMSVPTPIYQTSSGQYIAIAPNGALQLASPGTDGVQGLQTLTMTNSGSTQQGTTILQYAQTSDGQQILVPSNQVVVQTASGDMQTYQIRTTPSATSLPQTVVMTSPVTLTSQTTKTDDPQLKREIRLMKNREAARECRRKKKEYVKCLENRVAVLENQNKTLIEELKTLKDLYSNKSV
Oligonucleotide | E-score
CCGTGAC | 0.41
ACGCACC | 0.266
GTGGGGA | 0.264
CTATGAC | 0.408

Block 3
Target: Interferon regulatory factor 7, full length, phosphomimetic (IRF7, Homo sapiens, UniProt Q92985, residues 1-503, S471D/S472D/S475D/S476D/S477D/S483D/S484D/S487D)
Technique: protein-binding microarray
Molecule type: double-stranded DNA, one strand shown
Medium: in vitro
Concentration: 2200 nM top
Setting: 60-bp whole probe
With: salmon DNA 0.4 mg/ml
Reference: random background probes
Reading: higher = stronger binding
Constant ends, left off below: GCCTAGCAC … GTCTTGATTCGCTTGACGCTGCTG
Construct (chain): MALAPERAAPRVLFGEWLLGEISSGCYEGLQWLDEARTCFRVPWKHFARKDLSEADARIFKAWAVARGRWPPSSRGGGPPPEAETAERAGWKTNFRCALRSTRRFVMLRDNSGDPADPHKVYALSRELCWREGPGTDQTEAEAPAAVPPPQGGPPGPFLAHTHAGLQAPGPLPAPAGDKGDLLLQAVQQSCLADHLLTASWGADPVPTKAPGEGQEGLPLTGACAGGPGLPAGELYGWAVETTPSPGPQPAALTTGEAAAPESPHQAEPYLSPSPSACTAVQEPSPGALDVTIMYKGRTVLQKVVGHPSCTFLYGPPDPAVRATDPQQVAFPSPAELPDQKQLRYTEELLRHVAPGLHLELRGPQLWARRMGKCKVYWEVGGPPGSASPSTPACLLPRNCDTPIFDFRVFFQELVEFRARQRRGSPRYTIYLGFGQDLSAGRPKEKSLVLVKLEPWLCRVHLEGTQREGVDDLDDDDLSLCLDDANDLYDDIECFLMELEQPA
Oligonucleotide | fitted relative affinity [z-score]
GACGGTTTGGACACTGGGGACGTGCTA | 0.144
GACCATATCAGTCTCGAGACGTGCTAG | 0.73
GACGGTTTCAGTATCGGGACGTGCTAG | 2.66
GACGGTCTCTGTCTCGGGACGTGCTAG | 0.0446
ACAGGTTCTCTTTTATTTTTGTGCTAG | 1.74

Single results of other studies
Substance | target | test | system | setting | scale | measurement | result
PhoQ, residues 284 288 289 292 302 303 ALSMDL | PhoP, residues 12 14 15 18 19 TTLRV (Escherichia coli, UniProt P23836) | Sort-seq, item: YFP reporter | E. coli | PhoQ-PhoP variant library, with: 10 µM Mg2+ | reference: high Mg2+ state, higher = stronger signaling | fold induction | 15.2

Excerpt of the above (block 3):
Oligonucleotide | fitted relative affinity [z-score]
GACCATATCAGTCTCGAGACGTGCTAG | 0.73
